# Experimental data gathered from unrelated publications.
# Numbered parts are unrelated; each lists some results of a single study. Changes are numbered by the printed parent chain.

# Block 1
# Target: RNA binding protein fox-1 homolog 2, RRM domain, GST-SBP tag (RBFOX2, Homo sapiens, UniProt O43251-10, residues 100-194)
# Method: RNA Bind-n-Seq
# Molecule type: RNA
# Matrix: in vitro
# Tested at: 365 nM
# Notes: natural RNA segment, single round, ends assumed
# Baseline: no-protein control
# Direction: higher = stronger binding
# Target sequence (chain): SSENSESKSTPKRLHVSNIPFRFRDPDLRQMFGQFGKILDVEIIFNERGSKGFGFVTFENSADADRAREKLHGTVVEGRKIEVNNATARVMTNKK
Sequence,RBNS enrichment (R)
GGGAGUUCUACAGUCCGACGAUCAUCAUAGCCCCCUGCCGCUCAGCCUUGUACAUAGACCUAUCCCUCCCUGCCCUGGUCCUCUUCCUGCCUCCUGUAAAUAUCUGUAUCUAGACCAGAAUAUUUUGUCCAAGUGGAAUUCUCGGGUGCCAA,1.05
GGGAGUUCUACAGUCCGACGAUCGGAACUUUUAAAUUCCUUAAUGUUAAUAUUAAUGUUCAUGUUAAUGUCCUAAGCUGGCCAUUAACAUGAACUACGUCACUUUUCUUUUGAGGGUCAAAUAUUUAGUGCAUUGGAAUUCUCGGGUGCCAA,0.528
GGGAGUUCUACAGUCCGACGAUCACAGGCUGGACCUGUGAGAUAUGGUUUGAAUUUUAACCAGUUUAUCACAUAACCUCUAGAGACCAUGCAUCUAGUUAUUGUCAGGAAUAAUUUAAAAGGUUUAGUCGCCAUGGAAUUCUCGGGUGCCAA,0.554
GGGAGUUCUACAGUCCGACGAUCUUUCAAGUAGCCAAUUUUGCCUUUUUAUGUAUUUUUACAUAGUUUCCUCUUCAAGAAAAAAAAAGCAGAGUUUUUUUGCUUUUCAACUCUAUUUUGUUCUUAAAUAAGCAUGGAAUUCUCGGGUGCCAA,1.85
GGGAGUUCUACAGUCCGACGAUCUCCCUAACAUUUUUUUCCCCAAACUUGGGUCUGGAUGUAGAUUCUCACCCUAUGGCCUGAGUCCAAUCCCUAGAACUGUGGUUUCCUCCAGUGUGACUUGUCCUGAUCAGUGGAAUUCUCGGGUGCCAA,1.02
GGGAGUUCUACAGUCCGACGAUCAGGGGGGAUGGGAAACAGCUGACUUCAAUUACCGUGCUGUAUAUUACCGUGCUGUAUACCUAUCUACUUUUCUGGGCAGCUGAUGGAGCUCUGGAAGAAACACCAAAGCCUGGAAUUCUCGGGUGCCAA,0.461
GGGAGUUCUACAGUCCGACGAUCUUCAUUUUUCUCACUGAGCCAGUGAUGGUUGCUAUCCUCUAGGAAAAAAAAAGAAACUGGGGUAGGUUGUAGGAGGGGGGCCCAGAAAGACACCCCUGUACCUCUUCUCCUGGAAUUCUCGGGUGCCAA,0.271
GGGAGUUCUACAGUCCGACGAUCUACGAGAUCUGUCUCUGCUGUUUAACUUCAUUGGAUUAAUCAGCUGGUUUCAACUCUACUGCGAAACAAAAAUAGCUCCUUAAAAGUACUGUUCUCCUUCAGUGGCAUGUUGGAAUUCUCGGGUGCCAA,0.591
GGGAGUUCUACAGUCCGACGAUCACAAAUGGUGCUGUUGCAAACACUUUUUUUUUGAGAUGAAGUCUCGCGGUUGUCACCCGGGCUGGAGUGCAGUGGCGUGAUCUCGGCUCACUGCAACUUCCACCUCCUGGUGGAAUUCUCGGGUGCCAA,0.198
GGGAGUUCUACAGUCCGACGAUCUACAGAAUUGCCUGUUUGUUUCAAUGUCUCCCUCCACUUGGCUCUUAGGGGAAUUAAGGACAGGCCUAGAGUUAAAACACUUGUCUCCUAGUGUCACCUCUGCCAGCAGAUGGAAUUCUCGGGUGCCAA,0.267
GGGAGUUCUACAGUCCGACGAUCUCCUGCCUAAUUGCCCUGGCCAGAACUUCCAACACUAUGUUGAAUACGAGUGGUGAGAGAGGGCAUCCCUGUCUUGUGCCAGUUUUCAAAGGGAAUGCUUCCAGUUUUUGUGGAAUUCUCGGGUGCCAA,0.996
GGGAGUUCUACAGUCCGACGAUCAGAGGUGCCGGGUUCCUAUUGGUUAGUUGGUUGUUUUUCCGUCUGAGUGAAUUUUUGCCAGUCUUGUGAGCAGAUGUACCUGAUGUAUUCUCAAUGUUCCAAGAGGUUCUUGGAAUUCUCGGGUGCCAA,0.983

# Block 2
# Target: Ras GTPase-activating protein-binding protein 1, full length (G3BP1, Homo sapiens, UniProt Q13283)
# Chain of UniProt Q13283 (whole entry, looked up): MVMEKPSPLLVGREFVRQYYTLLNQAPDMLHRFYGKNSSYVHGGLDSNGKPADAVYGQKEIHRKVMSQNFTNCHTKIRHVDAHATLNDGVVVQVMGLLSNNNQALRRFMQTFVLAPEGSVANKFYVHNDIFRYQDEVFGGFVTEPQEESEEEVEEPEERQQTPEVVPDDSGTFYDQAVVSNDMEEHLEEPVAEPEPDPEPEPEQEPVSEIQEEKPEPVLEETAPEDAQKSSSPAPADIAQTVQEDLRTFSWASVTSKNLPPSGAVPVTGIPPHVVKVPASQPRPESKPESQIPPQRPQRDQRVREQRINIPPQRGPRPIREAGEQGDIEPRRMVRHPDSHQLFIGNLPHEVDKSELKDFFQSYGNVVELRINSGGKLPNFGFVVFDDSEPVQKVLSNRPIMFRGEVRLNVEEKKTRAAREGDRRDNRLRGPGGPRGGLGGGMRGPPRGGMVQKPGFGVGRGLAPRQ
# Method: RNA Bind-n-Seq
# Molecule type: RNA
# Matrix: in vitro
# Tested at: 200 nM
# Notes: whole 134-nt RNA, ends assumed
# Added: 150 mM LiCl
# Baseline: input library
# Direction: higher = stronger binding
# All molecules: 7-deaza-guanosine replaces G
Sequence,log2 enrichment
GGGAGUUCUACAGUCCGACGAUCGUCCUGUGCUACACAUCGUAUGUACCGAAUCGGGAAAAAGGGAAAGGGUUUUUUUGGGAAAGUAUUAUGUUACGCCGUUCGGAUCUGCACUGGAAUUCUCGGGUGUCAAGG,-1.1
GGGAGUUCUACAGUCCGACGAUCUCAAGUCCUGUGCUACACAUCGUAUGUACCGAAUCGGGAAAAAGGGAGGGAGGGAAAGUAUUAUGUUACGCCGUUCGGAUCUGCACUUCCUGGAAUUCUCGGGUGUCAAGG,-0.585
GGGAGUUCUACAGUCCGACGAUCUCAAGUCCUGUGCUACACAUCGUAUGUACCGAAUCGGUUUUUGGUGGAAAAAGGAAAGUAUUAUGUUACGCCGUUCGGAUCUGCACUUCCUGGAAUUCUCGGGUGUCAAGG,-0.363
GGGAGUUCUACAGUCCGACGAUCAUCAUGCAGGUGGGCAUCUUUGGGAAGUGGGGCAAGGGGGGGAUAGGGAGGGGGGUAACACUUUGGGAACAGGUGGUCCCAGGUCGUUUCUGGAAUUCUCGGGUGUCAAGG,0.258
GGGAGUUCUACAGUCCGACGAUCCACAGACAACACGCACCCACACAGACACAGAUGGAAGGGGUUGGGAUGGGGACAGGGUGCACAGCAGGGCGGGGUAGGACCCCAGCCCCUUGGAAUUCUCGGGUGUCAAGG,0.102
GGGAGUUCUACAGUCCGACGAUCAGUCCUGUGCUACACAUCGUAUGUACCGAAUCGGUUUUUGGGUUUUUGGGGUUUUUGGAAAGUAUUAUGUUACGCCGUUCGGAUCUGCACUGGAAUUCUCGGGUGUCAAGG,0.074
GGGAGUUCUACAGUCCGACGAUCUCCUGUGCUACACAUCGUAUGUACCGAAUCAAACCCCCCCAAACCCCCCCAAACCCAAAAAAGUAUUAUGUUACGCCGUUCGGAUCUGCAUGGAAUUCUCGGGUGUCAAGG,0.366
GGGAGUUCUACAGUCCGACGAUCUCCUGUGCUACACAUCGUAUGUACCGAAUCGGGUUUUUUGGGGUUUUUUGGUUUUUUGGAAAGUAUUAUGUUACGCCGUUCGGAUCUGCAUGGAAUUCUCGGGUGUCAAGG,0.588
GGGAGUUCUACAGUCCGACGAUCAGUCCUGUGCUACACAUCGUAUGUACCGAAUCAAAUUUUUAAAUUUUUAAAUUUAAAAAAGUAUUAUGUUACGCCGUUCGGAUCUGCACUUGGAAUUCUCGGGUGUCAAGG,-2.79
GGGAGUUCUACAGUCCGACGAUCUUAAGUGUAUUGGAGCCCCAAGUUCUCAAUUAUUUGAGCCUCCGGGCGACAGAGCAAGAAAAGGUGAGUGGAUAGCGCAGGCAUAUUGGUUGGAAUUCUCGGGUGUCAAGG,-0.334
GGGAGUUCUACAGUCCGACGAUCCAAGUCCUGUGCUACACAUCGUAUGUACCGAAUCGGGGUUUGGGUUUGGGGUUUGGAAAGUAUUAUGUUACGCCGUUCGGAUCUGCACUUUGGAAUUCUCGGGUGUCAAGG,-1.08

# Block 3
# Target: RING finger protein unkempt homolog, zinc fingers 1-6, GST-SBP tag (UNK, Homo sapiens, UniProt Q9C0B0, residues 30-357)
# Chain of UniProt Q9C0B0 (30-357, looked up): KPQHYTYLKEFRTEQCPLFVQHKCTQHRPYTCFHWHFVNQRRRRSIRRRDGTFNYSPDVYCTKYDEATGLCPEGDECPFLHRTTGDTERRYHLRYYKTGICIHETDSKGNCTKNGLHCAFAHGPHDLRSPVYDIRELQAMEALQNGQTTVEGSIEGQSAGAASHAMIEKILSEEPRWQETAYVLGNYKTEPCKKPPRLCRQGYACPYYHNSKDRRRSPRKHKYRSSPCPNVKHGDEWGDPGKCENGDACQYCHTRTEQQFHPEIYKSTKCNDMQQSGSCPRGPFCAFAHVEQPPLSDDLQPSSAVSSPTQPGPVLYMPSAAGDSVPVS
# Method: RNA Bind-n-Seq
# Molecule type: RNA
# Matrix: in vitro
# Tested at: not given
# Notes: RNA with constant flanks, human and mouse sites, ends assumed
# Baseline: input RNA pool
# Direction: higher = stronger binding
Sequence,bound/input enrichment [ratio]
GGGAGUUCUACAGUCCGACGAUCCUUCAAACCCCAGCUUCCACUUUCCUUGCCAUCUUCCCUCCUGGGCAUUGUUUUGCUGUCAUUAGAAGGAAACCAUUUUUUUUUUUCCCAAUUUACCCUGUUUAACCUGUGAGAGUCUCUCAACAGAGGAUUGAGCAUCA,2.1
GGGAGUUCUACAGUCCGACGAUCGUACCUAGAAAUGCUGAACACUACAAGCAAAGACAUUCACACGGGCAUUAUGGCUGUGAAUAUAGGAAGGAUCCAAAAAGACCCGUCGCGUGGAGAAUGGACAGUGAGAAACAUGGACAGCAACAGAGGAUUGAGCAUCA,0.537
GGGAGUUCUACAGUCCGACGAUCCUCCCUGGAGGAGUCAAGGCCUUGAAGCUACCUAAUGAAGAGGCCACCACACCAUUAGACUUAGCUUUGCAAGGUGGACACUCCACACUGGUAGAAGACAUCACAAAUUUUCAGGGUAGCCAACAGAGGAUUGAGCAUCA,0.61
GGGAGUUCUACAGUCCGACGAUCUAUCAUGCCUUUUCUCUAGUUUCUCUUUCAGGAUGGAAAGAAUAUUUUAAAAACAACAUUUUAGGACUUAAACAUUUGAUUUCGGUACCAGAUGAAUUGCUAACCUGUUACUGAUAAUUUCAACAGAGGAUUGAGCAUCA,7.47
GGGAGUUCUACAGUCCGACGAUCCUGUUUAUGGGAGACUAUGUGGACAGAGGAUAUUACUCUGUUGAAACAGUUACACUGCUUGUAGCUCUUAAGGUUCGUUACCGAGAGCGCAUCACCAUACUCCGAGGGAAUCACGAGAGCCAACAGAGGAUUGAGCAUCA,0.128
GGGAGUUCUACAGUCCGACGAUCUUGGGAGGCGAGAAGAUGUGCAGGUUCCUGACAGCAGUGCAGGGAGGAAGUUUCAUCCUGUCCUCCGUGGGGAGCCAGUUGGUUCGAUUGAUUCCUGAAAGCUCAGGAAAGAUUCACCAGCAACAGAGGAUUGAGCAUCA,0.143
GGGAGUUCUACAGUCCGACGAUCUUGUGUGUGAAAGUAGAUAGGACUCCGAAAGGCACCCAGGGUGUUGUCACAAAUUUUGAAAUUUUCCGAAUGAGGGAGAAACAGGUACCUGUGGAUGUGGUCGAGAUGAAAGAAACCAUCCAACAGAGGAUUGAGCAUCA,0.283
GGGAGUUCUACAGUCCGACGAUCAAAACCUGGUAUGGAGUUCCAGGCUACGCUGCUGAGCAGCUAGAAAACGUGAUGAAGAAGCUCGCUCCUGAGCUCUUUGUGUCCCAGCCGGACCUGCUCCACCAGCUGGUGACCAUCAUGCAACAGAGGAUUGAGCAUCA,0.132
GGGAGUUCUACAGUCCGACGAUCAGAUGUCUCUUUGGGCCUGUCUGCCUGCUUUCCUUCCUUCCUUUUCUUUCCUUUUUUUUUUUGGUCAGUUGCCAUCUCAAUCUAAUCAUAGAUGUAAGAAUGCGGAAGCCAGAGUAACUCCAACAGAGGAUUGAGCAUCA,0.513
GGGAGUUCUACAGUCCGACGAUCAGCAGACCAAAAAUUCUGAUGACCGCAUCUAGAUUAUUUUUUUAUAAAAAUGAUUUUCACUAUAGCUAUGUUACGCUAAGCUACUGUCCAAUCUCUUGUGAUGUGUAACUUUUACAUGUGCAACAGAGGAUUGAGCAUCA,2.39
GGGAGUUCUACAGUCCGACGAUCGUCCAAACACAAUGUGACUGUUGUUUUUUAUACUGGCAUCGAGCUGUCUUCCCAAUUUAUUUAGAUGAUGUAUAUGAAAAUGCUGUUGAUGCAGCCAGAUUACAUUACAUGUUCAGUGCUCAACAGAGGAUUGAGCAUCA,5.08

# Block 4
# Target: CCNA2, cyclin fold, Cln2 fusion (human)
# Method: yeast growth competition, sequencing
# Matrix: yeast
# Notes: strong parent motif
# Baseline: not given
# Direction: higher = stronger binding
# Parent: DTL docking peptide (human); PSSMRKICTYFHR
Variant,normalised enrichment score
ASSMRKICTYFHR [P1A],1.55
PSSMRKIATYFHR [C8A],0.874
PSSMRAICTYFHR [K6A],1.64
PSSMRKACTYFHR [I7A],1.15
PSSMRKICTAFHR [Y10A],1.5
PSSMRKICAYFHR [T9A],1.33
PSSARKICTYFHR [M4A],1.65

# Excerpt of the above (block 2):
Sequence,log2 enrichment
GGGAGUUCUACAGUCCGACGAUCUCAAGUCCUGUGCUACACAUCGUAUGUACCGAAUCGGUUUUUGGUGGAAAAAGGAAAGUAUUAUGUUACGCCGUUCGGAUCUGCACUUCCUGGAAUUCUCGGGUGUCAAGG,-0.363
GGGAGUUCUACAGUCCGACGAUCGUCCUGUGCUACACAUCGUAUGUACCGAAUCGGGAAAAAGGGAAAGGGUUUUUUUGGGAAAGUAUUAUGUUACGCCGUUCGGAUCUGCACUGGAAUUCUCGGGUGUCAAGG,-1.1
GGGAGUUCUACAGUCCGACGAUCUCCUGUGCUACACAUCGUAUGUACCGAAUCGGGUUUUUUGGGGUUUUUUGGUUUUUUGGAAAGUAUUAUGUUACGCCGUUCGGAUCUGCAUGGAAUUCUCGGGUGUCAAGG,0.588
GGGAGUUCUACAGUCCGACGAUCAGUCCUGUGCUACACAUCGUAUGUACCGAAUCGGUUUUUGGGUUUUUGGGGUUUUUGGAAAGUAUUAUGUUACGCCGUUCGGAUCUGCACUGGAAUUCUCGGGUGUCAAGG,0.074
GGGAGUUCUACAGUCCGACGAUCAUCAUGCAGGUGGGCAUCUUUGGGAAGUGGGGCAAGGGGGGGAUAGGGAGGGGGGUAACACUUUGGGAACAGGUGGUCCCAGGUCGUUUCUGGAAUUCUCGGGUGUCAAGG,0.258
